{"data": "Assay results of several laboratories", "note": "Each numbered part is a random draw from the data of one study; scales do not carry over between parts."}
{"data": "Set 1", "target": "Interferon regulatory factor 3, full length, phosphomimetic (IRF3, Homo sapiens, UniProt Q14653, residues 1-427, S386D/S396D/S398D/S402D/T404D/S405D)", "method": "protein-binding microarray", "form": "double-stranded DNA, one strand shown", "sample": "in vitro", "concentration": "2540 nM top", "notes": "60-bp whole probe", "with": "salmon DNA 0.4 mg/ml", "reference": "random background probes", "reading": "higher = stronger binding", "constant ends, left off below": "GCCTAGCAC … GTCTTGATTCGCTTGACGCTGCTG", "sequence of UniProt Q14653 (whole entry, unmodified, looked up)": "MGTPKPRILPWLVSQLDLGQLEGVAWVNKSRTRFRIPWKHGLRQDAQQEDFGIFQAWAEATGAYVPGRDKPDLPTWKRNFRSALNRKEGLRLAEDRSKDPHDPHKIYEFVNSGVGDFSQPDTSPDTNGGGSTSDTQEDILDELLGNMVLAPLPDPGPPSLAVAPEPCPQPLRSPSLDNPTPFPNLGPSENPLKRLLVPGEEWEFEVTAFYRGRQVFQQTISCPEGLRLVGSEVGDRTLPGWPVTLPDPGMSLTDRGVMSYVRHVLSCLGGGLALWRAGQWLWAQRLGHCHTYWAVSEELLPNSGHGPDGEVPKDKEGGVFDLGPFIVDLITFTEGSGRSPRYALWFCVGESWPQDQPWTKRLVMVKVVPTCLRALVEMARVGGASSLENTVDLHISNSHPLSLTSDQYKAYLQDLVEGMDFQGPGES"}
{"Strand": "TTAGTTATCGACTTTCGGTTAGTGCTA", "fitted relative affinity": "2.04 z-score"}
{"Strand": "GACGGTTTCGTTATCCTGACGTGCTAG", "fitted relative affinity": "6.17 z-score"}
{"Strand": "TTAGGTTTCCTGCTCCTTTAGTGCTAG", "fitted relative affinity": "3.36 z-score"}
{"Strand": "GGCGGTTTCGGACTGGGGACGTGCTAG", "fitted relative affinity": "4.72 z-score"}
{"Strand": "GACGATCTCAGACTGGAGAGGTGCTAG", "fitted relative affinity": "0.168 z-score"}
{"Strand": "TTAGGTTTCGGTAACGGTTAGTGCTAG", "fitted relative affinity": "5.11 z-score"}
{"Strand": "TCATTTTGGTTTCTGGTACTGTGCTAG", "fitted relative affinity": "3.01 z-score"}
{"Strand": "GACGATATCAGTATCGAGATGTGCTAG", "fitted relative affinity": "1.23 z-score"}
{"Strand": "TTAGGATTGCTTTTCCTTTAGTGCTAG", "fitted relative affinity": "2.15 z-score"}
{"Strand": "GACGGTATCGGGACTGGGTACGTGCTA", "fitted relative affinity": "1.82 z-score"}
{"Strand": "TAAATTTTGATGGAGAGTGCGTGCTAG", "fitted relative affinity": "-0.427 z-score"}
{"Strand": "GATGGTTTCCTTCTCCTGACGTGCTAG", "fitted relative affinity": "10.1 z-score"}
{"Strand": "TTAGGTTTCCTTTCCCTTTAGTGCTAG", "fitted relative affinity": "10.7 z-score"}
{"Strand": "GACGGTTTCGAAACTGGGGACGTGCTA", "fitted relative affinity": "5.31 z-score"}
{"Strand": "GACGATTTCAGTTTCGAGCCGTGCTAG", "fitted relative affinity": "3.58 z-score"}
{"Strand": "GACGGAATGGACACTGGGGACGTGCTA", "fitted relative affinity": "0.0618 z-score"}
{"Strand": "GACGGTATCGATACTGGGGACGTGCTA", "fitted relative affinity": "2.48 z-score"}
{"Strand": "GACGGACTGGGACTGGGGATGTGCTAG", "fitted relative affinity": "-0.985 z-score"}
{"Strand": "TTAGGTATCGGTCTCGGTTTGTGCTAG", "fitted relative affinity": "5.07 z-score"}
{"data": "Set 2", "target": "RNA binding protein fox-1 homolog 2, RRM domain, GST-SBP tag (RBFOX2, Homo sapiens, UniProt O43251-10, residues 100-194)", "method": "RNA Bind-n-Seq", "form": "RNA", "sample": "in vitro", "concentration": "365 nM", "notes": "natural RNA segment, single round, ends assumed", "reference": "no-protein control", "reading": "higher = stronger binding", "constant ends, left off below": "GGGAGUUCUACAGUCCGACGAUC … UGGAAUUCUCGGGUGCCAA", "Target sequence (chain)": "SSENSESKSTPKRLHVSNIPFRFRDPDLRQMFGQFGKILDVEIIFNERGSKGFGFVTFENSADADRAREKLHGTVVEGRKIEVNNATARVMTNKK"}
{"Strand": "CCCUAACCUGUCUGUCUCCGUGGAUGCAUCCUAACCCUAAGGAAAAUUCCCCAGGCUGUGAUCUACCCUAGAGAAGGCUCGCUCCCUGCCUACUGGCUCACAAAUGAGGA", "RBNS enrichment (R)": 0.378}
{"Strand": "UUGGAUUUAUCGCAAAAACUGAAGGUUUGCGCAAGAGACGAGGACAGCGGAAAGUGGACCUGCCAGGCCGGGAGUGUGUCCCUCACCAACUAUGCACACAGCACUCGCUC", "RBNS enrichment (R)": 0.522}
{"Strand": "UCUGUAGACCGAUUGGAUGUAUGUGGAGGCUGGCCAGAUGGCAACUGAUGACUUGUGUGCAAACAAGUGUUUAUCCGGGUUGCAUUAUCCAAACUGGUUUGUUAAAAACU", "RBNS enrichment (R)": 0.541}
{"Strand": "CCUACUGUUAAAUAGCAUUUGUCUAAUUGCUAAUAAGCCUGUCGUUACCAAAUUUUAUAUAAGAAUGGAAUAGUCAGUCUGGCCUUAAAGAGACACACAAAGAUGGGCUG", "RBNS enrichment (R)": 0.439}
{"Strand": "AGGUUUCCUCGGGCCUGUUUUGACUGAUUGCUGGAGUGCAUUUGAUAGUUAAAAAUUACUAAUUGGUUUUAUUUCCCUUCACACUCUGCCUCCCCACUUCUCCCCCCGUU", "RBNS enrichment (R)": 0.368}
{"Strand": "GCUUUCCCAAGCUCACCCCACCUCCAUGACUAGAAGCUUCUGCAAAUCUGCUUGGUAAAUGUCUCCUGGGAAAGGCAGAACCCAUAACUUAAAGACACGCACAGUCCCUU", "RBNS enrichment (R)": 0.365}
{"Strand": "CCCUGGUGUACUCCUGAGGUGUCUGCCCCAGCUGGCUGCCCUGGGAGAGUGGCUGGAUGGCUUUGGCUGCCCUGUAGCCUACCUGUGGCAGCAUACUGUGCCAGCCAUGC", "RBNS enrichment (R)": 0.228}
{"Strand": "CCCGCCCGACACCUGCGUGAGCCCUAGGAUCCAGGUCCUCUCUCACCUCUGACCCAGCUCCAUGCCAGAGCAGGAGCCCCGGUCAAUUUUGGACUCUGCACUCCCUCUCC", "RBNS enrichment (R)": 0.467}
{"data": "Set 3", "target": "Sal-like protein 4, full length isoform B (SALL4, Homo sapiens, UniProt Q9UJQ4-2, residues 1-616)", "method": "universal PBM", "form": "double-stranded DNA, one strand shown", "sample": "in vitro", "concentration": "not given", "notes": "8-mer, flanks averaged, mean of replicates", "reading": "higher = stronger binding"}
{"Strand": "ACACCTGA", "E-score": -0.0866}
{"Strand": "TAATAGCA", "E-score": 0.162}
{"Strand": "AGCGACAC", "E-score": -0.111}
{"Strand": "TAGGACAA", "E-score": 0.194}
{"Strand": "CCCTCCGG", "E-score": -0.361}
{"Strand": "CTATGATC", "E-score": 0.126}
{"Strand": "AAAAGTGG", "E-score": 0.15}
{"Strand": "GTTCCATA", "E-score": 0.188}
{"Strand": "AGTCCGGC", "E-score": -0.278}
{"Strand": "CCGTGTGA", "E-score": -0.179}
{"Strand": "ACTAGCGA", "E-score": -0.0377}
{"Strand": "CCACCGCC", "E-score": -0.308}
{"Strand": "AGATCCGA", "E-score": -0.123}
{"Strand": "CTAGCGAC", "E-score": -0.0675}
{"Strand": "AGTAAAGC", "E-score": 0.166}
{"Strand": "AATAGTTG", "E-score": 0.28}
{"Strand": "TGCATCCA", "E-score": -0.0553}
{"Strand": "GGCTCCTA", "E-score": -0.21}
{"Strand": "AGAGTTGA", "E-score": 0.00768}
{"Strand": "CAACTGTA", "E-score": 0.206}
{"Strand": "GAAATGTC", "E-score": 0.0459}
{"Strand": "GCAGGGAA", "E-score": -0.144}
{"Strand": "AGAAGCGG", "E-score": -0.165}
{"Strand": "GCCGAGCC", "E-score": -0.216}
{"Strand": "CCAACGCA", "E-score": -0.0442}
{"data": "Single results of other studies"}
{"Molecule": "PhoQ, residues 284 288 289 292 302 303 NLSRDF", "target": "PhoP, residues 12 14 15 18 19 QWHVF (Escherichia coli, UniProt P23836)", "test": "Sort-seq, refers to: YFP reporter", "system": "E. coli", "conditions": "PhoQ-PhoP variant library, with: 10 µM Mg2+", "scale": "reference: high Mg2+ state, higher = stronger signaling", "quantity": "fold induction", "value": 12.5}
